Measured values from different studies.
Numbered parts are unrelated; each lists some results of a single study. “And” joins repeats or separate records; there may be more than shown.

Series 1 — cell line: mouse MPNST tumor cells; method: high-content immunofluorescence imaging; refers to: nuclear SOX9; tested at: 10 µM; time: 12 h; setting: mean of 2 replicates; relative to: DMSO control; reading: higher = more nuclear SOX9
Compound | nuclear SOX9 intensity
CC(C)CC(N)C1(c2ccc(Cl)cc2)CCC1 (stereo not drawn) | 113 % of DMSO
CC[C@@H](CO)NC(=O)[C@@H]1C=C2c3cccc4[nH]cc(c34)C[C@H]2N(C)C1 | 108 % of DMSO
O=c1[nH]oc2c1CCNC2 | 95.2 % of DMSO and 94.2 % of DMSO
C[C@]12CC[C@@H](O)C[C@@H]1CC[C@@H]1[C@@H]2CC[C@]2(C)C(=O)CC[C@@H]12 | 90.1 % of DMSO
COc1cc(Br)c(OC)c2c1C(CN)C2 (stereo not drawn) | 96.7 % of DMSO
Cc1[nH]c2ccc(Cl)cc2c1C1=CCNCC1 | 160 % of DMSO
CCc1c(C(=O)OC)ncc2[nH]c3cc(OC)c(OC)cc3c12 | 135 % of DMSO
O=C(Nc1ccccc1)C(=O)c1cn(Cc2ccccc2)c2ccccc12 | 171 % of DMSO
C[C@]12Cc3c[nH]nc3C[C@@H]1CC[C@@H]1[C@@H]2CC[C@@]2(C)[C@H]1CC[C@]2(C)O | 141 % of DMSO
C[C@@H]1CN([C@H]2CC[C@](C#N)(c3ccc(F)cc3)CC2)CC[C@]1(C(=O)O)c1ccccc1 | 102 % of DMSO

Series 2 — species: mouse; matrix: microsomes or S9; tested at: 2 µM; time: 0.5 h
Structure (SMILES) | remaining compound [%]
COc1cc(Cn2c(=O)[nH]c(O)c(C(C)=O)c2=O)cc(OC)c1 | 76.4
Cc1c(C)n(CCN2CCOCC2)c2nc3c(c(N)c12)CCCC3 | 19
CCOc1cc2c(cc1OCC)-n1cccc1C(c1ccccc1OC)NC2 (stereo not drawn) | 21.1
C[C@]12C=CC(=O)C=C1CCC1C2CC[C@]2(C)C(=O)CCC12 (stereo partly drawn) | 15.5

Series 3 — cell line: A-375; tested at: 100 µM; time: 18 h
Compound | viability [%]
C=CC[C@]1(O)CC[C@H]2[C@@H]3CCC4=CCCC[C@@H]4[C@H]3CC[C@@]21C | 8.16
C=C1CC[C@@]2(O)[C@H]3Cc4ccc(O)c5c4[C@@]2(CCN3CC2CC2)[C@H]1O5 | 103
Cc1cccc(C)c1N=C1NCCCS1 | 99.4
CC(O)(CS(=O)(=O)c1ccc(F)cc1)C(=O)Nc1ccc(C#N)c(C(F)(F)F)c1 (stereo not drawn) | 60.3

Series 4 — method: CCK-8
SMILES: CC(C)S(=O)(=O)c1cc2c(Nc3ccc4sc(C5CCCC5)nc4c3)ccnc2cc1OCCO
cell line | setting | survival
L929 RIPK3-/- reexpressing RIPK3 K51A | 12.5 µM | 67.8% and 66.3% and 69.7% and 61%
L929 RIPK3-/- reexpressing RIPK3 K51A | 6.25 µM, together with: zVAD | 80.9% and 86.8% and 79.8% and 81%
L929 RIPK3-/- reexpressing RIPK3 K51A/R69H | 25 µM, together with: zVAD | 64.3% and 65.3% and 66.6% and 55%
L929 RIPK3-/- reexpressing RIPK3 K51A/R69H | 6.25 µM, together with: zVAD | 85.1% and 96.2% and 93.6% and 94.9% and 93.9%
L929 RIPK3-/- reexpressing RIPK3 K51A | 25 µM | 44.6% and 38.2% and 47.5% and 39.6% and 50.7%
L929 RIPK3-/- reexpressing RIPK3 K51A | 50 µM | 13.7% and 13.1% and 11.3% and 12.7% and 10.9%

Some of these lines once more (series 3):
Compound | viability [%]
C=C1CC[C@@]2(O)[C@H]3Cc4ccc(O)c5c4[C@@]2(CCN3CC2CC2)[C@H]1O5 | 103
CC(O)(CS(=O)(=O)c1ccc(F)cc1)C(=O)Nc1ccc(C#N)c(C(F)(F)F)c1 (stereo not drawn) | 60.3
Cc1cccc(C)c1N=C1NCCCS1 | 99.4
